Measured values of several laboratories.
Chain of UniProt Q15759 (whole entry, looked up): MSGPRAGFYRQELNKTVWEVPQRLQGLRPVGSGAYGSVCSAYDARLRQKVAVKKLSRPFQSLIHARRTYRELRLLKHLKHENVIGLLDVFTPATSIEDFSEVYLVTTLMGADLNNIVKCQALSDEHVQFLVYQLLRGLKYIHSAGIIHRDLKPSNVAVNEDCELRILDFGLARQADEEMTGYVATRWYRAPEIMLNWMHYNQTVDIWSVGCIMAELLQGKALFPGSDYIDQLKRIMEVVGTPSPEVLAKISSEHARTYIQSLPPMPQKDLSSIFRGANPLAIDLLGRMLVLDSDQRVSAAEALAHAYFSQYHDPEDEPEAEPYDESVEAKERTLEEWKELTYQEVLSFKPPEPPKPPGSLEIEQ
Chain of UniProt P22607 (whole entry, looked up): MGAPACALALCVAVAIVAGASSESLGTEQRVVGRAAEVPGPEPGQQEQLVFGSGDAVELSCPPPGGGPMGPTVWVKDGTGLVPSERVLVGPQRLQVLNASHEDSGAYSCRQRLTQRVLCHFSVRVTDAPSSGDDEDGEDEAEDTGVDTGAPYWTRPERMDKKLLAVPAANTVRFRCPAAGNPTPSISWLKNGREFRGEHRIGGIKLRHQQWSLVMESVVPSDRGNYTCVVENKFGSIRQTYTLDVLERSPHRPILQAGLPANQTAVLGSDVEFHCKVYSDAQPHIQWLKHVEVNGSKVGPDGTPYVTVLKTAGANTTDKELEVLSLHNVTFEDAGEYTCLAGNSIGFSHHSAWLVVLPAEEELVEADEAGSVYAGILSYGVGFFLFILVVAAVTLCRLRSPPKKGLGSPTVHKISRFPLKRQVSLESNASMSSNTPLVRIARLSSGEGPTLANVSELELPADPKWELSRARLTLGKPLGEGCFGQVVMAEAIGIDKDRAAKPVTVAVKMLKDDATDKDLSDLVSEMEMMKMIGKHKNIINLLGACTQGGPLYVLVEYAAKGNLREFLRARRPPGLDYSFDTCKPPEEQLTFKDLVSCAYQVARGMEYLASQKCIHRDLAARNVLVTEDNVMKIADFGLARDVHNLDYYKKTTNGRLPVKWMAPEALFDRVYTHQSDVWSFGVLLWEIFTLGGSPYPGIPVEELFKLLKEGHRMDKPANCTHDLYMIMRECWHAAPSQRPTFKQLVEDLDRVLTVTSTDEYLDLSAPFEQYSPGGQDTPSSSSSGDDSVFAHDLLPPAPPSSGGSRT
Chain of UniProt Q14511 (whole entry, looked up): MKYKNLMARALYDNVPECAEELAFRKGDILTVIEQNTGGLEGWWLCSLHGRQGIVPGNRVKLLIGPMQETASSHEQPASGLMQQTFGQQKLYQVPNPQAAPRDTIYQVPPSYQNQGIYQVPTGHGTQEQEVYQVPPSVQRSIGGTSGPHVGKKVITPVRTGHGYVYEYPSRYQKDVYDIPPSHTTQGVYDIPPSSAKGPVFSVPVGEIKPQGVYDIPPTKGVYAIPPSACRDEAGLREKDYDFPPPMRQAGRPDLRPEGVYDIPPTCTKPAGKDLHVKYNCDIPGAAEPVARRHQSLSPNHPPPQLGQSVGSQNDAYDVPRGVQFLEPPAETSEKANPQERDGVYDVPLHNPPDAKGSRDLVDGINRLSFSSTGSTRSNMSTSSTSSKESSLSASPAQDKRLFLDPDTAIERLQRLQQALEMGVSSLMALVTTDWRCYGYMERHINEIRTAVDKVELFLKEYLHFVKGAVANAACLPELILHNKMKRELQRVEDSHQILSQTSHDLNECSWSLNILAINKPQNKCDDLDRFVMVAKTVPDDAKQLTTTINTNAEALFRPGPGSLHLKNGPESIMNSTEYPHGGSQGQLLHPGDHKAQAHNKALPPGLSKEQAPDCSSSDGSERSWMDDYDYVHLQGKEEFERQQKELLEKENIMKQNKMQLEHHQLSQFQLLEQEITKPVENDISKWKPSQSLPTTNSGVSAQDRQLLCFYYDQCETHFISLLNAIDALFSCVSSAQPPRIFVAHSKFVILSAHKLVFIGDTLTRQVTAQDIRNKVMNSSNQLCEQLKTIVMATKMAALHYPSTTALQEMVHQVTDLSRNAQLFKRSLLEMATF
Chain of UniProt O15123 (whole entry, looked up): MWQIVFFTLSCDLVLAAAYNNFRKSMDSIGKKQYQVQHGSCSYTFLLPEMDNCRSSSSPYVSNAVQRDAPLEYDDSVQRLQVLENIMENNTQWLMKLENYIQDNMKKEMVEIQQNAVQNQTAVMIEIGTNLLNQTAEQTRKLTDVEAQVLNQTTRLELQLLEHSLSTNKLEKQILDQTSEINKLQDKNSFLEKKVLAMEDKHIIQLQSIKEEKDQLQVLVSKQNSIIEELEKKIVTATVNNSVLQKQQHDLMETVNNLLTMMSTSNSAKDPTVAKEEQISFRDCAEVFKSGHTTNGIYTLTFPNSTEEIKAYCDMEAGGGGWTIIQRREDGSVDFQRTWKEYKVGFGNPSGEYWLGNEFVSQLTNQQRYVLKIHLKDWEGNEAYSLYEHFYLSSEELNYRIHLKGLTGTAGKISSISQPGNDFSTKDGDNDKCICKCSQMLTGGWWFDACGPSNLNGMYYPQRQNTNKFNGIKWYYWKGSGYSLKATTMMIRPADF
Chain of UniProt Q9WVQ1 (whole entry, looked up): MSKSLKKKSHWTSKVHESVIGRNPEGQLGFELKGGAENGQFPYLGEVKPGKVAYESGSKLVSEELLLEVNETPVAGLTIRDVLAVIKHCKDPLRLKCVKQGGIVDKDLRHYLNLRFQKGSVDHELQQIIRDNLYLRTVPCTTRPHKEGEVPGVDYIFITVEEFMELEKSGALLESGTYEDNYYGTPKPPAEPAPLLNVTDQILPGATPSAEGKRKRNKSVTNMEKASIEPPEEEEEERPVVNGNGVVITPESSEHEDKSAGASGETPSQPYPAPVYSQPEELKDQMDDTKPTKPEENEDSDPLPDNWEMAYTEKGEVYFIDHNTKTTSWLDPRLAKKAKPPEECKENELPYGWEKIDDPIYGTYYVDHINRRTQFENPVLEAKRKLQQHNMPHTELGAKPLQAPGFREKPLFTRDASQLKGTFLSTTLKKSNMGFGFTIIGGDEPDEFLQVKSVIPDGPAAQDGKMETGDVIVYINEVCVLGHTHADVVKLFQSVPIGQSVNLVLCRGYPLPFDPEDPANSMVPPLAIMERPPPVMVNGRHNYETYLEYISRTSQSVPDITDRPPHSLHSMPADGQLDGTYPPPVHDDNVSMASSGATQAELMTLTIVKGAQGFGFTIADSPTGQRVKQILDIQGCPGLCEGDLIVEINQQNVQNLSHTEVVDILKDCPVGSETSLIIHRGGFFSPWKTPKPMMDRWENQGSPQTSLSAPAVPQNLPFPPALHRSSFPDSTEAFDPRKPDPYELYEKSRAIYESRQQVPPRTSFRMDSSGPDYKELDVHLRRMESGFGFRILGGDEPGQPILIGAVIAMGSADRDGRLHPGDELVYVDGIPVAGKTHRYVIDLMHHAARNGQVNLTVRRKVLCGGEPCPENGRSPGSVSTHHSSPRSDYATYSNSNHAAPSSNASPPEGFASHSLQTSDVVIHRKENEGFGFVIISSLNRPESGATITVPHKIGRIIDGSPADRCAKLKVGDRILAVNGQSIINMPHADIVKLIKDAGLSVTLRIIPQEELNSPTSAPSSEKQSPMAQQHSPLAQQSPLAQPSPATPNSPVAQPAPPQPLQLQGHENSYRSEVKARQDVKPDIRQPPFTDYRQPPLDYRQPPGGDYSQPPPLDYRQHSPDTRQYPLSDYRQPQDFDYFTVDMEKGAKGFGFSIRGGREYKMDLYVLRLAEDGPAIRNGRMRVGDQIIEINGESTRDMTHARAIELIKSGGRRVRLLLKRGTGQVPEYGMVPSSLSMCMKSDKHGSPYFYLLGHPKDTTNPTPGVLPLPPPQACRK
Chain of UniProt Q9GZT9 (whole entry, looked up): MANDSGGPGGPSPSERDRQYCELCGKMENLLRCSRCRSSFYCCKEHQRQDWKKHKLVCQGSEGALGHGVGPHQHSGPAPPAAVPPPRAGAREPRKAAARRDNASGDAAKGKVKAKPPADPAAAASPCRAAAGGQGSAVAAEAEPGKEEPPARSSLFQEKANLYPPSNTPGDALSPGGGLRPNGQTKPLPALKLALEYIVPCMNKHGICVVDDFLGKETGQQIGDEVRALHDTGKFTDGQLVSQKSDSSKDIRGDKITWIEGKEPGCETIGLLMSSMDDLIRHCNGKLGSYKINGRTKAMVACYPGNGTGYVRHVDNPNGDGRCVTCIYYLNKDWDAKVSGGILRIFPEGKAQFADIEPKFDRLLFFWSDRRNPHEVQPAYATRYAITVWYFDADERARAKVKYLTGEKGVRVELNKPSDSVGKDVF
Chain of UniProt A0A109QYD3 (whole entry, looked up): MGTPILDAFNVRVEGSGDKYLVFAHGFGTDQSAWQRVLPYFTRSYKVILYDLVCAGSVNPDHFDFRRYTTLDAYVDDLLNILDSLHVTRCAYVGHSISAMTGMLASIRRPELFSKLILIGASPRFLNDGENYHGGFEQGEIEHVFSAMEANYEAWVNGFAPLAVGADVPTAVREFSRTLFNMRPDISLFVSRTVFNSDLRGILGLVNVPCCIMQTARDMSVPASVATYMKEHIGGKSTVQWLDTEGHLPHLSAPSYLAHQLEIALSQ

For `CC[C@H](C)[C@@H]1NC(=O)[C@H](CCCNC(=N)N)NC(=O)[C@H](CO)NC(=O)[C@H](CC(C)C)NC(=O)[C@H](Cc2ccc(O)cc2)NC(=O)[C@H](Cc2ccccc2)NC(=O)[C@H]([C@@H](C)O)NC(=O)[C@H](CCCNC(=N)N)NC(=O)[C@@H]2CCCN2C(=O)[C@H](CC(=O)O)NC(=O)[C@H](Cc2c[nH]c3ccccc23)NC(=O)[C@H](C(C)C)NC(=O)[C@@H](Cc2ccc(O)cc2)NC(=O)CSC[C@@H](C(N)=O)NC1=O`, the Kd was 0.00017 µM (Egl nine homolog 1 (EGLN1, Homo sapiens, UniProt Q9GZT9); binding, BLI).
For `CC(C)C[C@H](NC(=O)[C@H](CO)NC(=O)[C@@H]1CCCN1C(=O)[C@H](CCC(N)=O)NC(=O)[C@@H](NC(=O)[C@H](C)NC(=O)[C@H](CCCCN)NC(=O)[C@H](CC(C)C)NC(=O)[C@H](Cc1ccc(O)cc1)NC(=O)[C@H](COP(=O)(O)O)NC(=O)[C@H](CCC(=O)O)NC(=O)[C@H](CCCNC(=N)N)NC(=O)[C@H](CCCNC(=N)N)NC(=O)[C@H](C)NC(=O)[C@H](C)N)[C@@H](C)O)C(=O)O`, the Kd was ~3.8 µM (Membrane-associated guanylate kinase, WW and PDZ domain-containing protein 2, GK domain (Magi2, Mus musculus, UniProt Q9WVQ1); binding, isothermal titration calorimetry; pH 8.0, 25 °C).
`CSCC[C@H](NC(=O)[C@H](CCC(N)=O)NC(=O)CNC(=O)[C@H](CCC(N)=O)NC(=O)[C@H](CO)NC(=O)[C@@H]1CCCN1C(=O)[C@H](CCSC)NC(=O)[C@@H](NC(=O)[C@H](CC(C)C)NC(=O)[C@H](CO)NC(=O)[C@H](CC(C)C)NC(=O)[C@@H](NC(=O)[C@@H](NC(=O)[C@H](CO)NC(=O)[C@@H](NC(=O)[C@H](CCCCN)NC(=O)[C@H](CO)NC(=O)[C@@H](NC(=O)[C@H](CO)NC(=O)[C@H](CCC(N)=O)NC(=O)[C@H](C)NC(=O)[C@H](CO)NC(=O)[C@H](CO)NC(=O)[C@H](C)NC(=O)[C@@H]1CCCN1C(=O)[C@H](C)NC(=O)[C@H](CO)NC(=O)[C@@H](NC(=O)[C@@H]1CCCN1C(=O)[C@H](Cc1ccc(O)cc1)NC(=O)[C@@H](NC(=O)[C@H](CCCNC(=N)N)NC(=O)CNC(=O)CNC(=O)[C@@H]1CCCN1C(=O)[C@H](C)NC(=O)[C@@H]1CCCN1C(=O)[C@@H](NC(=O)[C@@H]1CCCN1C(=O)[C@@H](NC(=O)[C@@H]1CCCN1C(=O)[C@H](CCC(N)=O)NC(=O)[C@H](CO)NC(=O)[C@H](CCSC)NC(=O)[C@@H](N)CCC(=O)O)[C@@H](C)O)[C@@H](C)O)C(C)C)C(C)C)[C@@H](C)O)[C@@H](C)O)C(C)C)[C@@H](C)O)C(C)C)C(=O)N[C@H](C(=O)O)C(C)C` has a Kd of 2.2 µM (MAPK11 (Homo sapiens, UniProt Q15759); binding, isothermal titration calorimetry; 25 °C).
For `CC[C@H](C)[C@H](NC(=O)[C@H](Cc1ccccc1)NC(=O)[C@H](CO)NC(=O)CN)C(=O)N[C@@H](Cc1c[nH]cn1)C(=O)N[C@@H](CO)C(=O)N[C@H](C(=O)N1CCC[C@H]1C(=O)N[C@@H](CCCNC(=N)N)C(=O)N[C@@H](Cc1c[nH]cn1)C(=O)O)C(C)C`, the Kd was 3.43 µM (Angiopoietin-2 (ANGPT2, Homo sapiens, UniProt O15123); binding, bio-layer interferometry).
`CC[C@H](C)[C@@H]1NC(=O)[C@@H]2CCCN2C(=O)[C@@H](NC(=O)[C@H](C)NC(=O)[C@H](CCSC)NC(C)=O)CSCc2cc3cc(c2)CSC[C@@H](C(=O)N[C@@H](Cc2ccc(O)cc2)C(=O)NCC(=O)N[C@@H](CO)C(=O)NCC(=O)N[C@@H](CO)C(=O)NCC(=O)N[C@@H](CO)C(=O)N[C@@H](CC(=O)O)C(=O)N[C@@H](Cc2ccc(O)cc2)C(=O)N[C@@H](CCCCN)C(=O)N[C@@H](CC(=O)O)C(=O)N[C@@H](CC(=O)O)C(=O)N[C@@H](CC(=O)O)C(=O)N[C@@H](CC(=O)O)C(=O)N[C@@H](CCCCN)C(N)=O)NC(=O)[C@H](Cc2ccc(O)cc2)NC(=O)[C@H](CCCNC(=N)N)NC(=O)[C@H](CC(C)C)NC(=O)[C@H]([C@@H](C)O)NC(=O)[C@H](CC(N)=O)NC(=O)[C@H]([C@@H](C)O)NC(=O)[C@H](CSC3)NC(=O)CNC1=O` gave a Kd of 0.0332 µM (FGFR3 (Homo sapiens, UniProt P22607); binding, BLI).
The Kd of `C[C@H](N)C(=O)N[C@@H](CCCNC(=N)N)C(=O)N[C@H](C(=O)N[C@@H](CCCCN)C(=O)N[C@@H](CCC(N)=O)C(=O)N[C@H](C(=O)N[C@@H](C)C(=O)N[C@@H](CCCNC(=N)N)C(=O)N[C@@H](CCCCN)C(=O)N[C@@H](CO)C(=O)N[C@H](C(=O)NCC(=O)NCC(=O)N[C@@H](CCCCN)C(=O)N[C@@H](C)C(=O)O)[C@@H](C)O)[C@@H](C)O)[C@@H](C)OP(=O)(O)O` is reported as 59.9 µM (DNMT3A (Homo sapiens, UniProt Q9Y6K1); binding, ITC).
`CCCS(=O)(=O)N1CCN(Cc2ccc(NC(=O)c3ccc(-c4cc(NC(=O)C5CC5)ccc4OC(F)(F)F)cc3)cc2)CC1` has a Kd of > 1 µM (Genome polyprotein, NS5A domain 1 (Hepatitis C virus genotype 1b, UniProt Q9WMX2, Y2065H)).
With `CC1=C[C@@H](O/C=C2/C(=O)O[C@H]3c4ccccc4C[C@@H]23)OC1=O` the Kd was 35.9 µM (RMS3 (Lathyrus oleraceus, UniProt A0A109QYD3); binding, fluorescence).
`CC(C)C[C@@H]1NC(=O)[C@H](CC(C)C)NC(=O)[C@H](CC(N)=O)NC(=O)[C@@H]2CCCN2C(=O)[C@H](CC(C)C)NC(=O)[C@H](CC(C)C)NC(=O)[C@H](CC(C)C)NC(=O)[C@@H](NC(=O)[C@H](CO)NC(=O)[C@H](CC(N)=O)NC(=O)[C@@H](N)C(C)C)CSSC[C@@H](C(=O)NCC(=O)N[C@@H](CC(=O)O)C(=O)N[C@@H](CC(=O)O)C(=O)N[C@@H](CCCCNC(=O)CCCC[C@@H]2SC[C@@H]3NC(=O)N[C@@H]32)C(=O)NCCCCCC(=O)NCCCCCC(=O)NCCCCCC(=O)NCCCCCC(=O)NCCCCCC(=O)N[C@@H](CCCCNC(=O)CCCCc2cn(CCCC[C@H](NC(=O)N[C@@H](CCC(=O)O)C(=O)O)C(=O)O)nn2)C(=O)NCC(N)=O)NC(=O)CNC1=O` gave a Kd of 0.04 µM (FOLH1 (Homo sapiens, UniProt Q04609); binding).
`CC(=O)NC1C(O)OC(CO)C(O)C1OC1OC(CO)C(O)C(O)C1O` (centres unmarked) has a Kd of 60 µM (Intermedilysin (Streptococcus intermedius, UniProt Q9LCB8); binding).
`CC(=O)N[C@@H](C)C(=O)N[C@@H](C)C(=O)N1CCC[C@H]1C(=O)N1CCC[C@H]1C(=O)N[C@@H](CCCCN)C(=O)N[C@@H](CCCCN)C(=O)N1CCC[C@H]1C(=O)N1CCC[C@H]1C(=O)N[C@@H](CCCNC(=N)N)C(=O)N1CCC[C@H]1C(=O)NCC(=O)N[C@@H](C)C(=O)N1CCC[C@H]1C(=O)NCC(N)=O` has a Kd of ~14 µM (Enhancer of filamentation 1, SH3 domain (NEDD9, Homo sapiens, UniProt Q14511); binding, isothermal titration calorimetry; 25 °C).

A few entries again:
With `CC1=C[C@@H](O/C=C2/C(=O)O[C@H]3c4ccccc4C[C@@H]23)OC1=O` the Kd was 35.9 µM (RMS3 (Lathyrus oleraceus, UniProt A0A109QYD3); binding, fluorescence).
For `CC[C@H](C)[C@H](NC(=O)[C@H](Cc1ccccc1)NC(=O)[C@H](CO)NC(=O)CN)C(=O)N[C@@H](Cc1c[nH]cn1)C(=O)N[C@@H](CO)C(=O)N[C@H](C(=O)N1CCC[C@H]1C(=O)N[C@@H](CCCNC(=N)N)C(=O)N[C@@H](Cc1c[nH]cn1)C(=O)O)C(C)C`, the Kd was 3.43 µM (Angiopoietin-2 (ANGPT2, Homo sapiens, UniProt O15123); binding, bio-layer interferometry).
